Experimental data gathered from unrelated publications.
Parts stem from different laboratories: compare values within a part only. Changes are numbered by the printed parent chain.

Series 1 — observed: peptide-MHC binding; form: peptide; concentration: concentration not given
Target: HLA class I histocompatibility antigen, A alpha chain, allele A*25:01 (Homo sapiens, UniProt P04439)
`RVACRDVEV` — result for binding: “inactive”.
For `WSTIWRQLY`, binding read “inactive”.
Under binding, `ALGGSCHTT` is recorded as “inactive”.
`KQWIVAGAI`: binding “inactive”.
`TSASFTDLY`: binding “inactive”.
`CASSSDWFY`: binding “inactive”.
`YLKKLDDFY` — result for binding: “inactive”.
For `AFHQLVQVI`, binding read “inactive”.
`HTAEIQQFF` — result for binding: “active”.
`LTDEQKNAV` — result for binding: “inactive”.
Under binding, `DWMERIEDF` is recorded as “inactive”.
Under binding, `ARLSSPIVL` is recorded as “inactive”.
For `AQKLATKPV`, binding read “inactive”.
For `KQMSQPYAV`, binding read “inactive”.

Series 2 — method: aptamer microarray, sandwich; form: DNA with 2'F-ANA; sample: in vitro; concentration: 200 nM; added: Cy3 exosite-II aptamer, 400 nM; reading: higher = stronger binding; strand: GGTTGGTGTGGTTGG
Target: Prothrombin, mature alpha-thrombin (F2, Homo sapiens, UniProt P00734)
Setting: whole 15-mer aptamer, many near background
`2'F-ANA at 1 2 3 5 6 7 9 11 15` — result for “mean fluorescence intensity”: 50.9 a.u.
`2'F-ANA at 3 6 7 8 10 12 13 15`: “mean fluorescence intensity” 516 a.u.
For `2'F-ANA at 2 7 8 15`, “mean fluorescence intensity” read 560 a.u.
`2'F-ANA at 2 4 5 7 9 12 13 14` — result for “mean fluorescence intensity”: 45.6 a.u.
`2'F-ANA at 1 2 4 7 10 11 13 14`: “mean fluorescence intensity” 55.2 a.u.
`2'F-ANA at 1 4 5 7 8 9 11 12 13 14` — result for “mean fluorescence intensity”: 47.7 a.u.
`2'F-ANA at 6 7 12 15`: “mean fluorescence intensity” 750 a.u.
Under “mean fluorescence intensity”, `2'F-ANA at 1 4 5 6 9 10 13 14` is recorded as 69.3 a.u.

Series 3 — target: CCND2, cyclin fold, Cln2 fusion (human); method: yeast growth competition, sequencing; sample: yeast; setting: strong parent motif; baseline: not given; reading: higher = stronger binding; starting sequence: viral docking peptide; YKVKRRLVFGADD
`YKVKRPLVFGADD [R6P]`: “normalised enrichment score” 0.372.
`YHVKRRLVFGADD [K2H]`: “normalised enrichment score” 1.35.
`YKVKKRLVLGADD [R5K F9L]` — result for “normalised enrichment score”: 0.242.
For `YKAKRRLVFGADD [V3A]`, “normalised enrichment score” read 2.7.
Under “normalised enrichment score”, `YKVKRRLPFGADD [V8P]` is recorded as -0.0521.
Under “normalised enrichment score”, `YKVKRRLVKGADD [F9K]` is recorded as -0.161.
For `YKVKRRLVFGSDD [A11S]`, “normalised enrichment score” read 1.67.
`YKVPRRLVFGADD [K4P]`: “normalised enrichment score” 1.01.
For `YKVKRRLVFGAKD [D12K]`, “normalised enrichment score” read 0.31.
`YKVKRRIVFGADD [L7I]`: “normalised enrichment score” 1.64.
For `YKVKRRLIFGADD [V8I]`, “normalised enrichment score” read 1.15.
`AKVKRRLVFGADD [Y1A]`: “normalised enrichment score” 0.486.
`YKMKRRLVFGADD [V3M]` — result for “normalised enrichment score”: 0.413.
`YKVKRRLVFGMDD [A11M]`: “normalised enrichment score” 1.18.
`YKVKRRLVFLADD [G10L]`: “normalised enrichment score” 0.771.
For `YKVKRRLVFRADD [G10R]`, “normalised enrichment score” read 0.941.
`YKVKRRLWFGADD [V8W]` — result for “normalised enrichment score”: 0.314.
`YKVKRRLVHGADD [F9H]`: “normalised enrichment score” -0.0945.
For `YKVKRDLVFGADD [R6D]`, “normalised enrichment score” read 0.47.
`YKCKRRLVFGADD [V3C]` — result for “normalised enrichment score”: 1.97.
`YKSKRRLVFGADD [V3S]` — result for “normalised enrichment score”: 0.799.
`YKVKRRSVFGADD [L7S]` — result for “normalised enrichment score”: 0.0355.
For `YKVKGRLVFGADD [R5G]`, “normalised enrichment score” read -0.178.
`YKVNRRLVFGADD [K4N]` — result for “normalised enrichment score”: 1.
Under “normalised enrichment score”, `YKVKRRLVFGEDD [A11E]` is recorded as 2.02.

Series 4 — target: UBE2D4 UBC core domain (UniProt Q9Y2X8); method: yeast two-hybrid; sample: yeast; setting: mostly zero background; baseline: not given; reading: higher = stronger interaction
B1: VPS8 RING domain (UniProt Q8N3P4); chain TRGLNPKQDYCSICLQQYKRRQEMADEIIVFSCGHLYHSFCLQNKECTVEFEGQTRWTCYKCSSSNKVGKLSE
B2: ARIH2 RING domain (UniProt O95376); chain HVPTSHPPHHCAVCMQFVRKENLLSLACQHQFCRSCWEQHCSVLVKDGVGVGVSCMAQDCPLRTPEDFVF
B3: TRIM41 RING domain (UniProt Q8WV44); chain PVQTLQEEAVCAICLDYFTDPVSIGCGHNFCRVCVTQLWGGEDEEDRDELDREEEEEDGEEE
B4: ZMYND11 RING domain (UniProt Q15326); chain DEIDWETENHDWYCFECHLPGEVLICDLCFRVYHSKCLSDEFRLRDSSSPWQCPVCRSIKKKNTNKQEM
Target sequence (chain): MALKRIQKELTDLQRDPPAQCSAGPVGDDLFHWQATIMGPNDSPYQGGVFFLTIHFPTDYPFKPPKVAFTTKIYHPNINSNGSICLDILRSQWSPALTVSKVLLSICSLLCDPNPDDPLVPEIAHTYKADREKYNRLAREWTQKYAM
Under “lacZ reporter activity”, `B1 (VPS8 RING domain)` is recorded as 0.
Under “lacZ reporter activity”, `B2 (ARIH2 RING domain)` is recorded as 0.
`B3 (TRIM41 RING domain)` — result for “lacZ reporter activity”: 0.
`B4 (ZMYND11 RING domain)`: “lacZ reporter activity” 0.
Under “lacZ reporter activity”, `FAEQPSVKLCCQLCCSVFKDPVITTCGHTFCRRCALKSEKCPVDNVKLTVVVNNI (TRAF7 RING domain (UniProt Q6Q0C0))` is recorded as 0.

Some of these lines once more (series 4):
Under “lacZ reporter activity”, `B1 (VPS8 RING domain)` is recorded as 0.
Under “lacZ reporter activity”, `B2 (ARIH2 RING domain)` is recorded as 0.
`B3 (TRIM41 RING domain)` — result for “lacZ reporter activity”: 0.
`B4 (ZMYND11 RING domain)`: “lacZ reporter activity” 0.
